Experimental data gathered from unrelated publications.
Each line is one published result; not all experiments were run side by side. Values joined by “and” are separate records of one study, mostly repeats; a detail may differ. Numbers after ± are the reported error.

SMILES = CC(=O)c1c(C)c2cnc(Nc3ccc(C4CCN(CCS(C)(=O)=O)CC4)cn3)nc2n(C2CCCC2)c1=O; test system = HR+/HER2- advanced breast cancer patients; conditions = oral, 100 mg twice daily, grade 3/4,, monotherapy; quantity = patients with ALT increased; result = 0%
SMILES = Cc1ccc(-c2nc(C[S+]([O-])CC(=O)N3CCN(c4ccc(Cl)cc4)CC3)c(C)o2)cc1 (centres unmarked); target or system = Vero-E6; assay = CellTiter-Glo ATP; conditions = concentration not given, 72 h, first round 5-point; scale = relative to: DMSO 0%, hyamine -100%, more negative, more toxic; quantity = cytotoxicity efficacy; result = -16.9%
SMILES = CC(C)C[C@H](NC(=O)[C@H](CCCCN)NC(=O)OCC1c2ccccc2-c2ccccc21)C(=O)N[C@H](C(=O)N[C@@H](Cc1ccccc1)C(=O)N[C@@H](Cc1ccccc1)C(=O)N[C@@H](CCCCN)C(=O)NCC(=O)N[C@@H](Cc1ccccc1)C(=O)N[C@@H](C)C(=O)N[C@@H](Cc1c[nH]c2ccccc12)C(=O)N[C@@H](CC(N)=O)C(=O)N[C@H](C(=O)N[C@H]1CSSC[C@@H](C(=O)N[C@@H](Cc2c[nH]cn2)C(=O)N[C@@H](CCCNC(=N)N)C(=O)N[C@@H](CCCNC(=N)N)C(=O)N[C@@H](C)C(=O)N[C@@H](CC(N)=O)C(N)=O)NC(=O)[C@H](C(C)C)NC(=O)[C@H](CCCNC(=N)N)NC(=O)[C@H](C(C)C)NC(=O)CNC(=O)[C@H](CC(N)=O)NC(=O)[C@H](CCCNC(=N)N)NC(=O)[C@H](Cc2ccc(O)cc2)NC(=O)[C@H](C(C)C)NC1=O)C(C)C)C(C)C; assay = HPLC; test system = mouse liver homogenate 50 mg/mL; conditions = 8.00 h; quantity = peptide remaining; result = 38.4% and 34.1% and 40.8%
SMILES = O=C(c1ccc(F)c(F)c1Nc1ccc(I)cc1F)N1CC(O)([C@@H]2CCCCN2)C1; test system = human; conditions = oral, 0.6 mg/kg; quantity = onset day of chorioretinopathy DLT; result = 13 days
SMILES = COc1ncnn2ccc(-c3cnc4nc(C)n(Cc5nnc([C@@H](C)F)o5)c4c3)c12; test system = human; conditions = oral, dose not given, grade 4; quantity = patients with diarrhea; result = 0%
SMILES = COc1ccccc1-c1ccc(CN2CCC(NC(=O)Cc3ccc(F)cc3)C2)cc1 (centres unmarked); target or system = Vero-E6; assay = CellTiter-Glo ATP; conditions = concentration not given, 72 h, first round 5-point; scale = relative to: DMSO 0%, hyamine -100%, more negative, more toxic; quantity = cytotoxicity efficacy; result = 0%
SMILES = Cc1cc(C)c(CNC(=O)c2cc(Cl)c3c(c2C)O[C@@](C)([C@H]2CC[C@H](N(C)C)CC2)O3)c(=O)[nH]1; test system = human, relapsed/refractory NHL; conditions = concentration not given, all TEAEs, grade 5; quantity = Anaemia incidence; result = 0%
SMILES = CCN(CCO)CCCC(C)Nc1ccnc2cc(Cl)ccc12 (centres unmarked); test system = newly diagnosed glioblastoma patients; conditions = oral, 400 mg/dose, grade 1, together with: radiotherapy plus temozolomide; quantity = erythema multiforme patients; result = 14%
SMILES = COC[C@@H](CC(C)C)NC(=O)c1ccc(C)c(C)c1; test system = Hsd:ICR (CD-1) mouse, female, bone marrow; conditions = oral, 500 mg/kg, 24 h; quantity = micronucleated PCE per 1000 PCE; result = 0.5
SMILES = COc1cc2c(Oc3ccc4[nH]c(C)cc4c3F)ccnc2cc1OCC1(N)CC1; test system = paediatric refractory sarcoma patients; conditions = 10 mg; quantity = Hyperuricaemia incidence; result = 0%
SMILES = C[C@]1(CO)Cc2ncn(-c3ccc(C#N)c(Cl)c3)c2C(=O)O1; test system = human; conditions = concentration not given, European single ascending dose; quantity = disorders, nervous system, drug related; result = 6.3%
SMILES = CO[C@H]1C[C@@H]2CC[C@@H](C)[C@@](O)(O2)C(=O)C(=O)N2CCCC[C@H]2C(=O)O[C@H]([C@H](C)C[C@@H]2CC[C@@H](OC(=O)NCCOCCOCCOCCOCCOCCOCCOCCOCCC(=O)N3CCc4cc(Cn5nc(-c6ccc7oc(N)nc7c6)c6c(N)ncnc65)ccc4C3)[C@H](OC)C2)C[C@@H](O)[C@H](C)/C=C(\C)[C@@H](O)[C@@H](OC)C(=O)[C@H](C)C[C@H](C)/C=C/C=C/C=C/1C; test system = patients with advanced solid tumours; conditions = intravenous, 1.6 mg/3 mg weekly, any grade; quantity = incidence of Dysgeusia TEAE; result = 0%
SMILES = CN1CC[C@@H](c2c(O)cc(O)c3c(=O)cc(-c4ccc(C(F)(F)F)cc4Cl)oc23)[C@@H]1CO; assay = item: Hypertension; test system = relapsed or refractory haematological malignancies; conditions = oral, dose not given, all arms; quantity = patients with adverse event; result = 10%
SMILES = CC(C)[C@@H]1NC(=O)CNC(=O)[C@H](CC(N)=O)NC(=O)[C@H](CCCNC(=N)N)NC(=O)[C@H](Cc2ccc(O)cc2)NC(=O)[C@H](C(C)C)NC(=O)[C@@H](NC(=O)[C@@H](NC(=O)[C@H](CC(N)=O)NC(=O)[C@H](Cc2c[nH]c3ccccc23)NC(=O)[C@H](C)NC(=O)[C@H](Cc2ccccc2)NC(=O)CN)C(C)C)CSSC[C@@H](C(=O)N[C@@H](Cc2cnc[nH]2)C(=O)N[C@@H](CCCNC(=N)N)C(=O)N[C@@H](CCCNC(=N)N)C(=O)N[C@@H](C)C(=O)N[C@@H](CC(N)=O)C(N)=O)NC(=O)[C@H](C(C)C)NC(=O)[C@H](CCCNC(=N)N)NC1=O; test system = ICR mouse, blood; conditions = intramammary, 5 mg/kg, day 5, 3 d dosing; quantity = basophils; result = 1.43 ± 0.14%

Repeated from above:
SMILES = COc1cc2c(Oc3ccc4[nH]c(C)cc4c3F)ccnc2cc1OCC1(N)CC1; test system = paediatric refractory sarcoma patients; conditions = 10 mg; quantity = Hyperuricaemia incidence; result = 0%
